# Measurements pooled from the literature.
# The chains behind the UniProt entries cited, without tags or fusion partners. Residues count along the entry.
# UniProt P32300, whole entry: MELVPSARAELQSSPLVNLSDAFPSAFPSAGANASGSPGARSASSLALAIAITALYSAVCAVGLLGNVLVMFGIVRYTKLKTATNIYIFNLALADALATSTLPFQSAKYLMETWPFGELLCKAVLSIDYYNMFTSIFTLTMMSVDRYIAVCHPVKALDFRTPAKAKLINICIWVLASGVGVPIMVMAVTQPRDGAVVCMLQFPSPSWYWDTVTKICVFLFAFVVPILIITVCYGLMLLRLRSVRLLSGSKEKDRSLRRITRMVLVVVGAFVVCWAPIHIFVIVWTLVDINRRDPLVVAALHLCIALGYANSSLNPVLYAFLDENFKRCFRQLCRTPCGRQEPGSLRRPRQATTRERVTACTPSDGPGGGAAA
# UniProt P21554, whole entry: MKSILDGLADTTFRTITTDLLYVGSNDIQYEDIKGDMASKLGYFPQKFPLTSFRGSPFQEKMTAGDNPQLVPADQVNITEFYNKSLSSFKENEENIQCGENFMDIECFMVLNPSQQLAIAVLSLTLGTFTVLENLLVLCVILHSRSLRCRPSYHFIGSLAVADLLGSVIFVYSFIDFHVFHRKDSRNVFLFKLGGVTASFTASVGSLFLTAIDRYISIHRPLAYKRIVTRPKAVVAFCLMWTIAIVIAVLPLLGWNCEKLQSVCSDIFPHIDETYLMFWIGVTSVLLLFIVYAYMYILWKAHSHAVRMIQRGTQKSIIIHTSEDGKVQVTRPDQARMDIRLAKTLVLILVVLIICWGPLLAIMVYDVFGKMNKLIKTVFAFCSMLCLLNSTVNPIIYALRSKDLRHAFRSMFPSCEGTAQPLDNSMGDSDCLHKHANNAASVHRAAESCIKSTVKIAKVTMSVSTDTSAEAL
# UniProt P25084, whole entry: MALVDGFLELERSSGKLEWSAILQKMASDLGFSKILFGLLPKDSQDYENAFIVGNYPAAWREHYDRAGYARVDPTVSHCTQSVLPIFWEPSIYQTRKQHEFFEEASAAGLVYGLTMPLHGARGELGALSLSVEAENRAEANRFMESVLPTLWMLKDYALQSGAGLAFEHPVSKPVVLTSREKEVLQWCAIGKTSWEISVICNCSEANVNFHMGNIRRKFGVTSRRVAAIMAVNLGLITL
# UniProt Q3TBT3, whole entry: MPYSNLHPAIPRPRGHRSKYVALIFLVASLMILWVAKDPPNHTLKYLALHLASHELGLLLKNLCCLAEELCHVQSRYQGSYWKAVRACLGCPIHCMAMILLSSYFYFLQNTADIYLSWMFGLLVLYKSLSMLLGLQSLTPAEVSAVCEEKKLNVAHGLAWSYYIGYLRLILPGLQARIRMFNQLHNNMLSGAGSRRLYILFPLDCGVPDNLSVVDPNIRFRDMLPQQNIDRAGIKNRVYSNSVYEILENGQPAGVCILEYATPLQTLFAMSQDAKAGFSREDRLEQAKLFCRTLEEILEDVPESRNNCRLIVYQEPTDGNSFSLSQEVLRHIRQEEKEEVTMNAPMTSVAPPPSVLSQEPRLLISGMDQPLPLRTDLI
# UniProt Q9EP66, whole entry: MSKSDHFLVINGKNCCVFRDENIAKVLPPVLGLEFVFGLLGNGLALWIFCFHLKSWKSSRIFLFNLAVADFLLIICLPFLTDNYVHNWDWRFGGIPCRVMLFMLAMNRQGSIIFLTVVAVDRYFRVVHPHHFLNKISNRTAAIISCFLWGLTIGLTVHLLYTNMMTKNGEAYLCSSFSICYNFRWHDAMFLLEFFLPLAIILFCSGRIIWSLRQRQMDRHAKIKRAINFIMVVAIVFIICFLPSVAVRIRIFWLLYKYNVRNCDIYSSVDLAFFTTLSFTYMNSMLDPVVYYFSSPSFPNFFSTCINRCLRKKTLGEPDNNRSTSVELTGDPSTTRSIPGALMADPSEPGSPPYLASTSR
# UniProt P29990, 1476-2093 limits assumed: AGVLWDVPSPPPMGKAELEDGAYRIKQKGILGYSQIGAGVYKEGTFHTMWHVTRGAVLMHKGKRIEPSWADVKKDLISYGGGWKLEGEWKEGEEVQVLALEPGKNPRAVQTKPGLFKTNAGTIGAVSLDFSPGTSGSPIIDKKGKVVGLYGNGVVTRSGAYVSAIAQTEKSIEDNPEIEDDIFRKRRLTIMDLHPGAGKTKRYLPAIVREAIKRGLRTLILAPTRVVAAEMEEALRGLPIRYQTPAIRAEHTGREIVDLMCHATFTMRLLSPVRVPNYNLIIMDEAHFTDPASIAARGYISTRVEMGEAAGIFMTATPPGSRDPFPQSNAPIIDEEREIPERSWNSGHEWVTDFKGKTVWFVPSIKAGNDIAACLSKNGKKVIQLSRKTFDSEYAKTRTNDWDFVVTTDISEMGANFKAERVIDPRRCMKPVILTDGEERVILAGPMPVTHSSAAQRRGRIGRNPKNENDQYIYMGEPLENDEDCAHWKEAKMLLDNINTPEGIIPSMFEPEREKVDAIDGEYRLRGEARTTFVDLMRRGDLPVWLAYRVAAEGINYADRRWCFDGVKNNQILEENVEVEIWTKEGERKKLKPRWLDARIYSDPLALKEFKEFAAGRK
# UniProt P29990, 1346-1475 partner limits assumed: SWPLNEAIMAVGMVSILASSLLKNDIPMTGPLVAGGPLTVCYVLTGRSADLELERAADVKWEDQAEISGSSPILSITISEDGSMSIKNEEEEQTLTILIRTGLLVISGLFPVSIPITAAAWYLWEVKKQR
# UniProt Q14833, 33-912 limits assumed: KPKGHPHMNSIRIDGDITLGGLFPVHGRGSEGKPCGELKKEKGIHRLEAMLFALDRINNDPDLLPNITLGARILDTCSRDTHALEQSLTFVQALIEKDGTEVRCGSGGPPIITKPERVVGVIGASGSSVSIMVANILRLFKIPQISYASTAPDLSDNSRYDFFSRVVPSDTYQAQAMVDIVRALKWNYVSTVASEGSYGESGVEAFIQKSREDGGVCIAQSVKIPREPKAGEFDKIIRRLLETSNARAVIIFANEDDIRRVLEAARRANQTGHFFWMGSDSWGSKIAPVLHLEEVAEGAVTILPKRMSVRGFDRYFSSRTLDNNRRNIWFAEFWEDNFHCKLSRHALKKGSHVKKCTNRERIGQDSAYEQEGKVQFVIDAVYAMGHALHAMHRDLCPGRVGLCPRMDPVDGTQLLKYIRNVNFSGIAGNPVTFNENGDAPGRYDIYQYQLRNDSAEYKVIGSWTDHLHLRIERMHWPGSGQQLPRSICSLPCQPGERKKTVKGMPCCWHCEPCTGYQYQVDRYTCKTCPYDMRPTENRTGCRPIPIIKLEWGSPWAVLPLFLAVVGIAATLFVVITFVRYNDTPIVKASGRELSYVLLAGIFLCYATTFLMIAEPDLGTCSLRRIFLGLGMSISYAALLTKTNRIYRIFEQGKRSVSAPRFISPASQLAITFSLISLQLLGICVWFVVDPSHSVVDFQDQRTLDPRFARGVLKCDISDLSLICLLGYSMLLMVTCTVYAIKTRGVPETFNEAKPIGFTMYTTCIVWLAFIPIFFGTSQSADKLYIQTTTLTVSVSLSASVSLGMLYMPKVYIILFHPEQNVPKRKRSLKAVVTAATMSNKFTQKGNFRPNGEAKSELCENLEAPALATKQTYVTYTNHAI
# UniProt P54753, 34-998 limits assumed: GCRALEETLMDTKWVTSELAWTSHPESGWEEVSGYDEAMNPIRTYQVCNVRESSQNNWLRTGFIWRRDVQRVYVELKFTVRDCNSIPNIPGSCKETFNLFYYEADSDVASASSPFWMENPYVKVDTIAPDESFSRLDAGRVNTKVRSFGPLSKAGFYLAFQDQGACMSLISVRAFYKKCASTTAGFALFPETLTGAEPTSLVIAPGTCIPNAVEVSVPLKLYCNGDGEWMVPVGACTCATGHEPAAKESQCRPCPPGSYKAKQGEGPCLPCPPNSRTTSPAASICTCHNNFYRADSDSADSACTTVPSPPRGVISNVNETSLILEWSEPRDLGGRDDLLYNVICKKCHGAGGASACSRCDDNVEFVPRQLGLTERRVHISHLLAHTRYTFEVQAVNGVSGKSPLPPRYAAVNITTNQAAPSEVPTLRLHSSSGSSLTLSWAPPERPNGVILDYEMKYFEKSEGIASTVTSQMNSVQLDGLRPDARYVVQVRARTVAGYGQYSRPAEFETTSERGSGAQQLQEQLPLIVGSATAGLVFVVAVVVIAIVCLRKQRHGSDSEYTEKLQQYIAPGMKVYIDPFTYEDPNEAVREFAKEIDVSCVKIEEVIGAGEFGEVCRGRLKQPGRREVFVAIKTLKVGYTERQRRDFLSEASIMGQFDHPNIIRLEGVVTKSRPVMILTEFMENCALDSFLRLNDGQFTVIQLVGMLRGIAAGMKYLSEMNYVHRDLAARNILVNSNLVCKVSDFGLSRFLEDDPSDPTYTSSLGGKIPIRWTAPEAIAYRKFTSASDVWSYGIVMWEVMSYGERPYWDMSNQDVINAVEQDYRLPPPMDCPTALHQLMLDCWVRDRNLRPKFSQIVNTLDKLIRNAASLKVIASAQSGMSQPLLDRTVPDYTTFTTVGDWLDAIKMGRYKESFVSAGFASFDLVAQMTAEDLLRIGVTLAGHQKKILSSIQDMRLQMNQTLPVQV
# UniProt P35372, whole entry: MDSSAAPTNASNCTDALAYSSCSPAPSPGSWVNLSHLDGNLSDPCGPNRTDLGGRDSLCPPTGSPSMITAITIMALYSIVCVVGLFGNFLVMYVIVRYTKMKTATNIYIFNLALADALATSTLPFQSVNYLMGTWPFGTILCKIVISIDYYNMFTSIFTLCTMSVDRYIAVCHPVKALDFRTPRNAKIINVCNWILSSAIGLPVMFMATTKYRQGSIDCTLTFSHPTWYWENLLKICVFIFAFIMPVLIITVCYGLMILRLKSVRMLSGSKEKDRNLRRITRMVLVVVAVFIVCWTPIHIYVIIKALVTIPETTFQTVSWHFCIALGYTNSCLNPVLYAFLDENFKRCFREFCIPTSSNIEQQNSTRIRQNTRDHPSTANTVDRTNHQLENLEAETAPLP
# Numbers after ± are the reported error.
# Oprd1: Delta-type opioid receptor (Oprd1, Mus musculus, UniProt P32300)
# CNR1: Cannabinoid receptor 1 (CNR1, Homo sapiens, UniProt P21554)
# lasR: Transcriptional activator protein LasR (lasR, Pseudomonas aeruginosa, UniProt P25084)
Compound,target,test,test system,conditions,EC50 [nM]
O=C(N[C@@H]1CC[C@@]2(O)[C@H]3Cc4ccc(O)c5c4[C@@]2(CCN3CC2CC2)[C@H]1O5)c1ccnc(Br)c1,Oprd1,agonist,CHO cell membranes,,15.8 ± 2.96
CCn1nc(C)cc1C(=O)Nc1nc2cc(C(N)=O)cc(OC)c2n1C/C=C/Cn1c(NC(=O)c2cc(C)nn2CC)nc2cc(C(N)=O)cc(OCCCN3CCN(C(=O)CCCCN=[N+]=[N-])CC3)c21,"Stimulator of interferon genes protein (Sting1, Mus musculus, UniProt Q3TBT3)","IFN-β secretion, agonist, ELISA",mouse BMDCs,carrier-free cysteine-blocked click,75 ± 14
CC1(Cc2ccccc2)COc2ccc(C(=O)Nc3ccccc3I)cc21 (racemic),CNR1,,CHO cell membranes,,> 10000
C1c2c(-c3nnn[nH]3)n[nH]c2[C@@H]2C[C@H]12,"Hydroxycarboxylic acid receptor 2 (Hcar2, Mus musculus, UniProt Q9EP66)","cAMP level, agonist, GloSensor",cells expressing wild-type mouse receptor,,82
N=C(N)NCCC[C@H](NC(=O)c1ccccc1)C(=O)N[C@@H](CCCCN)C(=O)N[C@@H](C(N)=O)c1ccc(OCc2ccccc2)cc1,"Genome polyprotein, NS2B-NS3 protease (dengue virus type 2, UniProt P29990)",reporter gene,HeLa DENV2 protease reporter,,19600 ± 1800
COc1ccc(S(=O)(=O)N2CCCN(CC(=O)Nc3ccccc3OC)CC2)cc1,"Metabotropic glutamate receptor 4 (GRM4, Homo sapiens, UniProt Q14833)","calcium mobilization, positive allosteric modulator",CHO cells with Gqi5,with: glutamate EC20,> 10000
O=C(Oc1c(Br)cc(Br)cc1CNC(=O)c1ccccc1[N+](=O)[O-])c1ccc(Br)cc1,lasR,"reporter gene, agonist",Escherichia coli JLD271 lasI-lacZ reporter,,1.62
O=C(CCl)c1ccc2c(Nc3ccccc3)ncnc2c1,"Ephrin type-B receptor 3 (EPHB3, Homo sapiens, UniProt P54753)","EPHB3 autophosphorylation, inhibitor, immunoblot","HEK293, transfected",with: ephrin-B2,300
N#Cc1ccccc1C(=O)Oc1c(Br)cc(Br)cc1CNC(=O)c1ccccc1[N+](=O)[O-],lasR,"reporter gene, agonist",Escherichia coli JLD271 lasI-lacZ reporter,,5.64
COCOc1ccc(C(=O)OC2=C[C@@H](C(=O)OC)[C@]3(C)CC[C@H]4C(=O)O[C@H](c5ccoc5)C[C@]4(C)[C@H]3C2=O)cc1F,"Mu-type opioid receptor (OPRM1, Homo sapiens, UniProt P35372)",agonist,,,3.4 ± 0.6
O=C(NCc1cc(Br)cc(Br)c1O)c1ccccc1[N+](=O)[O-],lasR,"reporter gene, agonist",Escherichia coli JLD271 lasI-lacZ reporter,,> 900
N#Cc1cc(C(=O)N[C@@H]2CC[C@@]3(O)[C@H]4Cc5ccc(O)c6c5[C@@]3(CCN4CC3CC3)[C@H]2O6)ccn1,Oprd1,agonist,CHO cell membranes,,29.9 ± 3.99
O=C(NCc1cc(Br)cc(Br)c1OC(=O)c1ccccc1[N+](=O)[O-])c1ccccc1[N+](=O)[O-],lasR,"reporter gene, agonist",Escherichia coli JLD271 lasI-lacZ reporter,,0.674
CC1(Cc2ccccc2)COc2cc(C(=O)Nc3ccccc3I)ccc21 (racemic),CNR1,,CHO cell membranes,,> 10000
COCOc1ccc(C(=O)OC2=C[C@@H](C(=O)OC)[C@]3(C)CC[C@H]4C(=O)O[C@H](c5ccoc5)C[C@]4(C)[C@H]3C2=O)cc1Br,"Mu-type opioid receptor, with beta-arrestin-2 (OPRM1, Homo sapiens, UniProt P35372)","β-arrestin recruitment, agonist",,,> 25000
O=C(Oc1c(Br)cc(Br)cc1CNC(=O)c1ccccc1[N+](=O)[O-])c1ccccc1Cl,lasR,"reporter gene, agonist",Escherichia coli JLD271 lasI-lacZ reporter,,0.924

# Repeated from above:
Compound,target,test,test system,conditions,EC50 [nM]
CCn1nc(C)cc1C(=O)Nc1nc2cc(C(N)=O)cc(OC)c2n1C/C=C/Cn1c(NC(=O)c2cc(C)nn2CC)nc2cc(C(N)=O)cc(OCCCN3CCN(C(=O)CCCCN=[N+]=[N-])CC3)c21,"Stimulator of interferon genes protein (Sting1, Mus musculus, UniProt Q3TBT3)","IFN-β secretion, agonist, ELISA",mouse BMDCs,carrier-free cysteine-blocked click,75 ± 14
